Experimental data from different studies.
Protocols differ between the studies behind these lines.
PIK3CA M1043I: Phosphatidylinositol 4,5-bisphosphate 3-kinase catalytic subunit alpha isoform (PIK3CA, Homo sapiens, UniProt P42336, M1043I)
PIK3CA E545K: Phosphatidylinositol 4,5-bisphosphate 3-kinase catalytic subunit alpha isoform (PIK3CA, Homo sapiens, UniProt P42336, E545K)
PIK3CA: Phosphatidylinositol 4,5-bisphosphate 3-kinase catalytic subunit alpha isoform (PIK3CA, Homo sapiens, UniProt P42336)
PIK3CA I800L: Phosphatidylinositol 4,5-bisphosphate 3-kinase catalytic subunit alpha isoform (PIK3CA, Homo sapiens, UniProt P42336, I800L)

Structure (SMILES)	target	assay	setting	scale	remaining binding [%]
C=CC(=O)N1CCCC(n2c(=O)c3ncccc3n(Cc3ccc(Oc4ccccc4)cc3)c2=O)C1 (centres unmarked)	PIK3CA (Homo sapiens, UniProt P42336, H1047Y)	cell-free assay, competition with immobilised ligand	1 µM	–	96
COc1c(Cl)cccc1Nc1c(-c2ccncc2C#C[C@@]2(C)CCCN2C(=O)/C=C/CN(C)C)[nH]c2c1C(=O)NCC2	PIK3CA (Homo sapiens, UniProt P42336, H1047L)	binding, competition with immobilised ligand	3 µM	–	64
Cc1cnc2nc1Nc1cccc(c1)COC/C=C/COCc1cc(ccc1OCCN1CCOCC1)N2	PIK3CA M1043I	binding	0.1 µM	–	87
CC(=O)c1cnc(N)nc1N1CC[C@H]1c1nn2ccc(Cl)c2c(=O)n1-c1ccccc1	PIK3CA E545K	binding, competition with immobilised ligand	10 µM	–	59
COc1ccc(NC(=O)Nc2ccc3c(c2)C(=O)N(C(C)CO)CC(C)C(CN(C)Cc2ccc4c(c2)OCO4)O3)cc1 (centres unmarked)	PIK3CA	binding, competition with immobilised ligand	10 µM	–	74
CN1CCN(Cc2ccc(NC(=O)c3cccc(C#Cc4cnc(N)c5ncccc45)c3)cc2C(F)(F)F)CC1	PIK3CA	cell-free assay, competition with immobilised ligand	0.5 µM	–	100
CNC(=O)C1CCN(c2cc(C)c(F)cc2NC(=O)c2ccc(-c3cc(O)ccc3C)c(C)c2)CC1	PIK3CA (Homo sapiens, UniProt P42336, Q546K)	binding, competition with immobilised ligand	1 µM	–	100
Cc1ccc(-c2c(/C=C(\C#N)C(=O)NC(C)C)n(CCCO)c3ncnc(N)c23)cc1	PIK3CA E545K	cell-free assay, competition with immobilised ligand	1 µM	–	100
C=CC(=O)N1CCc2ccc(-n3c(=O)ccc4cnc5ccc(-c6cnn(C)c6)cc5c43)cc21	PIK3CA I800L	KINOMEscan	1 µM	relative to: DMSO control	56
CCN1CCN(Cc2ccc(C(=O)Nc3ccc(C)c(NCc4cnc5[nH]ccc5c4OC)c3)cc2C(F)(F)F)CC1	PIK3CA M1043I	binding, competition with immobilised ligand	1 µM	–	91
Nc1ncc2c(n1)-c1c([nH]c3ccc(C4=CCOCC4)cc13)CCC2	PIK3CA	binding, competition with immobilised ligand	1 µM	–	89
CC(C)=CC1OC(C)(C)C2C=C3C(=O)C(Cl)=CC(O)C3C3C(O)C4OC4C(=O)C132 (centres unmarked)	PIK3CA I800L	cell-free assay, competition with immobilised ligand	10 µM	–	55
CNC1C[S+]2CC[S+]3CC[S+](C1)[Ru-4]321([N]=C=S)[n]2c3ccc(OC)cc3c3c4c(c5cc(F)c[n+]1c5c32)C(=O)NC4=O (centres unmarked)	PIK3CA I800L	KinomeScan	0.1 µM	relative to: untreated	100
CC(=O)N1c2ccc(-c3ccc(CNC(=O)c4cn5cc(-c6cnc(N)nc6)nc(N6CCOCC6)c5n4)cc3)cc2CC[C@@H]1C	PIK3CA	KINOMEscan	10 µM	–	0.75
